Published values from different studies.
Protocols differ between the studies behind these lines. ± gives the spread as reported.
lecA: PA-I galactophilic lectin (lecA, Pseudomonas aeruginosa, UniProt Q05097)
APP amyloid-beta 1-40 oligomers: Amyloid-beta precursor protein, amyloid-beta 1-40 oligomers (APP, Homo sapiens, UniProt P05067)
lasR: Transcriptional activator protein LasR (lasR, Pseudomonas aeruginosa, UniProt P25084)
UniProt P26718, sequence (whole entry, looked up): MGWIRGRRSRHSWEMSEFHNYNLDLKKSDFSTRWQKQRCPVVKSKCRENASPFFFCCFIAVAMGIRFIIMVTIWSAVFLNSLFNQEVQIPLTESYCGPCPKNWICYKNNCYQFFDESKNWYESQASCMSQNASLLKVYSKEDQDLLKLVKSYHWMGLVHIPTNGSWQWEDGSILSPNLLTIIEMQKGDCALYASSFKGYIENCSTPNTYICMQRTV
UniProt Q9Y253, sequence (whole entry, looked up): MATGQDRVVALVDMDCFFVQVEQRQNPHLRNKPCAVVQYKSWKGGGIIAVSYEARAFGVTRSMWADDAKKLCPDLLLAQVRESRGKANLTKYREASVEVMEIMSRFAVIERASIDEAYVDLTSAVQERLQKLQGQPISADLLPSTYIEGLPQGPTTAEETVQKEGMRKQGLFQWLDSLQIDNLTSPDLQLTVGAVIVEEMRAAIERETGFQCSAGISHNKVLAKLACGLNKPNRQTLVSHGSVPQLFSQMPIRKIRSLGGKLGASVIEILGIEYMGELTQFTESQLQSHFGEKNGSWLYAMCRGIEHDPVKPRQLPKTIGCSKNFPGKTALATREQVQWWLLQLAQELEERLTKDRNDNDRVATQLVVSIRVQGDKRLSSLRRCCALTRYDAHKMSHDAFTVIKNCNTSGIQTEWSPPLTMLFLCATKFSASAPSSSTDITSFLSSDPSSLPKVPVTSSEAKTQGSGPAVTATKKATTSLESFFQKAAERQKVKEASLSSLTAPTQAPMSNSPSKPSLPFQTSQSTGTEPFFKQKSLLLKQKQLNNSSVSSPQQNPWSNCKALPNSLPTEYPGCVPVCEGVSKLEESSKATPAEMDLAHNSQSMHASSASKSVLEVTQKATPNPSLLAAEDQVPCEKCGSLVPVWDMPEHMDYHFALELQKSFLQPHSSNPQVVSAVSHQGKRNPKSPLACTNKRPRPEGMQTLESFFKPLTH
UniProt P61073, sequence (whole entry, unmodified, looked up): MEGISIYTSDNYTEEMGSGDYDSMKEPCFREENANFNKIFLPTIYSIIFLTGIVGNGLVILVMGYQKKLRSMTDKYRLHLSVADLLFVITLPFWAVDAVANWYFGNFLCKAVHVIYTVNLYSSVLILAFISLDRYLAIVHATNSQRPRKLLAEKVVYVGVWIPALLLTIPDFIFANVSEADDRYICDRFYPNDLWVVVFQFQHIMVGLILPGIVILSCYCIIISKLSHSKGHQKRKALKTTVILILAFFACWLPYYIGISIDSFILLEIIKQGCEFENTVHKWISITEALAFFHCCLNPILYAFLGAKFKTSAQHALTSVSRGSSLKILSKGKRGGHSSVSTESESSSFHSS
UniProt Q6TCG5, sequence (whole entry, looked up): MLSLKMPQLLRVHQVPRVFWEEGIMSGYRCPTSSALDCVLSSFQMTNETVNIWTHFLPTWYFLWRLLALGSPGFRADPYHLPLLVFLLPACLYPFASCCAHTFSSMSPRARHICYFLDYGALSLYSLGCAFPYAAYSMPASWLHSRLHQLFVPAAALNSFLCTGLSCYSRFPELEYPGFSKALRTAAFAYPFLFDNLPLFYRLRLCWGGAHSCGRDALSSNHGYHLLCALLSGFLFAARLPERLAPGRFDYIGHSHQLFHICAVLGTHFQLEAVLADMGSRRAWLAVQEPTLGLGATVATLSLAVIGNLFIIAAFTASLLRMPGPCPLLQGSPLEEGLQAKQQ
UniProt P53355, sequence (whole entry, looked up): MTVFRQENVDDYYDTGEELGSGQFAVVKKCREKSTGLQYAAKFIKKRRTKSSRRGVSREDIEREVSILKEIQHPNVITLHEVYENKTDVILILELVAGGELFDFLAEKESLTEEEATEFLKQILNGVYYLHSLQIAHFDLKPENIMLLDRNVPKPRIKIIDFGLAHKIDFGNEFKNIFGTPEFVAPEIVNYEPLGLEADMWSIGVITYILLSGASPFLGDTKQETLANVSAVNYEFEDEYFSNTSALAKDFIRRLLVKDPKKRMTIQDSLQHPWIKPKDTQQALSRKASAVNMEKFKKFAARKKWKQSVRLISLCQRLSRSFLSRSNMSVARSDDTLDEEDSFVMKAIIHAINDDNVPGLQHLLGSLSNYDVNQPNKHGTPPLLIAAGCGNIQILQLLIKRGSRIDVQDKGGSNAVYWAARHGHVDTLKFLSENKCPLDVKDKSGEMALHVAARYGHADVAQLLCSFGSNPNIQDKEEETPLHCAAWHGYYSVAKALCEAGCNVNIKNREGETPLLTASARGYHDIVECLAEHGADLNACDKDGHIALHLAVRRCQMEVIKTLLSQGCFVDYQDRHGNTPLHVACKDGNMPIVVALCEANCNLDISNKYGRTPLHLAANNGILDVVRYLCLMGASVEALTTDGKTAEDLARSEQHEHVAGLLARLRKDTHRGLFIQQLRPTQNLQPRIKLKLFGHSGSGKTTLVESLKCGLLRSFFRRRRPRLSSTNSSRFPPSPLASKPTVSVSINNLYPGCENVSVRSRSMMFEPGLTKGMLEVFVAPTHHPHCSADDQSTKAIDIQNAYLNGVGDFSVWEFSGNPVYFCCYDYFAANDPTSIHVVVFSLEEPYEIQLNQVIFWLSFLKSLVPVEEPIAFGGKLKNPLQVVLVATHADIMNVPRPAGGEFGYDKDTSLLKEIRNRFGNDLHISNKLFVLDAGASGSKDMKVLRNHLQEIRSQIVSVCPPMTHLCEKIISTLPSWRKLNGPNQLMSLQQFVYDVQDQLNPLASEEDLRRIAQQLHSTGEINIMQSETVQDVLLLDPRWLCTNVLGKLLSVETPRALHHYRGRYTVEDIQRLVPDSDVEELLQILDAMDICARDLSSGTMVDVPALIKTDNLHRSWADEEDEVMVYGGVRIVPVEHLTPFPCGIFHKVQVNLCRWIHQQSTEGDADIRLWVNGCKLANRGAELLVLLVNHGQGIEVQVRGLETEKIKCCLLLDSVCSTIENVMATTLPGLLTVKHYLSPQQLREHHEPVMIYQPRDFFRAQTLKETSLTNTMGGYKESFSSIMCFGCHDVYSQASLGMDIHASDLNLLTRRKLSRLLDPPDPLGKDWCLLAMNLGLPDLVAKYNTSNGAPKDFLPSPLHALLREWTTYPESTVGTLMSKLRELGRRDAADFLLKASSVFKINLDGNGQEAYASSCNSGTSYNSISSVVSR
UniProt P21397, sequence (whole entry, looked up): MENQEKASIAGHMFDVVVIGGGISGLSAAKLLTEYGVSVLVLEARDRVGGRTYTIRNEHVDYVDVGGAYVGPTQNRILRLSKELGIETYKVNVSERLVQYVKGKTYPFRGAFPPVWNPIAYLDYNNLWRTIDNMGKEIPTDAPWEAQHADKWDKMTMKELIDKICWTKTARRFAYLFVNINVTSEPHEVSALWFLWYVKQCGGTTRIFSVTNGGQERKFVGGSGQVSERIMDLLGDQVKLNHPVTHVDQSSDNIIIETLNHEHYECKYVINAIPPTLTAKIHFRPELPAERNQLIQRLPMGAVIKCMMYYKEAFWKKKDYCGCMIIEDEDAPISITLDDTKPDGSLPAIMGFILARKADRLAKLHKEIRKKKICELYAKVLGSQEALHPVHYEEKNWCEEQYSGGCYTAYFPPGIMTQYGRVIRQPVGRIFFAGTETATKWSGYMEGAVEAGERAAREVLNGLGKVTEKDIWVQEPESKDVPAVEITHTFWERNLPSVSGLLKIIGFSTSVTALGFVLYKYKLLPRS
UniProt P32300, sequence (whole entry, looked up): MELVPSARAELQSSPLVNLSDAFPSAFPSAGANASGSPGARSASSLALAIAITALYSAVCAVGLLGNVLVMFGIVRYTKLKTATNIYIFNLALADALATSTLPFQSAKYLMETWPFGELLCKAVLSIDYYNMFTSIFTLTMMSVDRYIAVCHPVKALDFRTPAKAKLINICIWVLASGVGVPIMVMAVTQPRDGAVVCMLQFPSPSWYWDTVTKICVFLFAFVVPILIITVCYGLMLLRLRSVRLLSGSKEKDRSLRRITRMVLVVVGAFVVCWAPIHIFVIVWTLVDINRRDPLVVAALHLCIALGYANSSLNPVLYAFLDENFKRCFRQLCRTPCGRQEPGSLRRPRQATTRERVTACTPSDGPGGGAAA
UniProt Q13451, sequence (whole entry, looked up): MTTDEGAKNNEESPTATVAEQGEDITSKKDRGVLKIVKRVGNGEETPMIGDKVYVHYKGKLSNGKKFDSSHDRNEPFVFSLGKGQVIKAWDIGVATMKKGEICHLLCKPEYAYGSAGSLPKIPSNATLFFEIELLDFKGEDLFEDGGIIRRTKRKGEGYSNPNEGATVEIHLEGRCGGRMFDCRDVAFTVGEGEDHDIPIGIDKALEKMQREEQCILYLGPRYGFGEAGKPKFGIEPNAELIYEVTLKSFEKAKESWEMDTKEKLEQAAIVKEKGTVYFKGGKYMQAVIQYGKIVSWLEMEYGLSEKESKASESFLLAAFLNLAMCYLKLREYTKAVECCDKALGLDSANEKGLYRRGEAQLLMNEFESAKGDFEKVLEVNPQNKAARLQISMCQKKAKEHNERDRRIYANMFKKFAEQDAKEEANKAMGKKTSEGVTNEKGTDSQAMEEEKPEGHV
UniProt P56494, sequence (whole entry, looked up): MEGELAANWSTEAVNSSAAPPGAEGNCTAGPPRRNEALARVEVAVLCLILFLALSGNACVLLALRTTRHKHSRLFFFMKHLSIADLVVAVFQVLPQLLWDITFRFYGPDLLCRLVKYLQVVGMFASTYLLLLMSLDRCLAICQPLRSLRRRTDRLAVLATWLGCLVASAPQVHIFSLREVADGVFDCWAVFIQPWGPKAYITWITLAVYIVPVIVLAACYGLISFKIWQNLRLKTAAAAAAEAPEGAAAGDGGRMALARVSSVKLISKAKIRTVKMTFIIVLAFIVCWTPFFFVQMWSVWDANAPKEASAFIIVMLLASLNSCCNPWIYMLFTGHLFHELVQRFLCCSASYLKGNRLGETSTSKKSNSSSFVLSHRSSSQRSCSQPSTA

| Structure (SMILES) | target | assay | system | setting | how to read | measurement | value |
| --- | --- | --- | --- | --- | --- | --- | --- |
| CN(C)C(=O)[C@H]1NC(=O)c2cnccc2-c2ccc(cc2)C(F)(F)CCCC(F)(F)c2cccc1c2 | NKG2-D type II integral membrane protein, with ULBP6 (KLRK1, Homo sapiens, UniProt P26718) | ligand binding, inhibitor, TR-FRET | HEK293 expressing NKG2D and DAP10 | added: ULBP6-AF647 | baseline: positive control | maximum inhibition | 96% |
| Cc1cc(Nc2cc(CN(C)C)cc(NC(=O)c3cc(CN(C)C)cc(Nc4ccnc5ccccc45)c3)c2)nc(N)n1 | DNA polymerase eta (POLH, Homo sapiens, UniProt Q9Y253) | nucleotide incorporation | – | concentration not given | – | kcat | 2.4 min⁻¹ |
| CC[C@H](C)[C@H](NC(=O)[C@H](Cc1c[nH]cn1)NC(=O)[C@H](CCCCNC(=O)[C@@H](NC(=O)[C@H](CCCCN)NC(=O)[C@H](Cc1ccccc1)NC(=O)[C@H](CCCCNC(=O)[C@H](CC(C)C)NC(=O)[C@@H]1CCCN1C(=O)[C@H](CCCCN)NC(=O)CCS[C@@H]1O[C@H](CO)[C@H](O)[C@H](O)[C@H]1O)NC(=O)[C@H](CC(C)C)NC(=O)[C@@H]1CCCN1C(=O)[C@H](CCCCN)NC(=O)CCS[C@@H]1O[C@H](CO)[C@H](O)[C@H](O)[C@H]1O)[C@@H](C)CC)NC(=O)[C@@H](NC(=O)[C@H](CCCCN)NC(=O)[C@H](Cc1ccccc1)NC(=O)[C@H](CCCCNC(=O)[C@H](CC(C)C)NC(=O)[C@@H]1CCCN1C(=O)[C@H](CCCCN)NC(=O)CCS[C@@H]1O[C@H](CO)[C@H](O)[C@H](O)[C@H]1O)NC(=O)[C@H](CC(C)C)NC(=O)[C@@H]1CCCN1C(=O)[C@H](CCCCN)NC(=O)CCS[C@@H]1O[C@H](CO)[C@H](O)[C@H](O)[C@H]1O)[C@@H](C)CC)C(N)=O | lecA | ITC | – | concentration not given, pH 7.5, 25 °C | – | binding stoichiometry | 4.3 ± 0.2 |
| N#Cc1cccc(C(F)(F)F)c1 | APP amyloid-beta 1-40 oligomers | binding, STD NMR | – | highest STD | – | STD NMR signal | 0% |
| C[n+]1ccc(C(=O)NC2CCC3(O)C4Cc5ccc(O)c6c5C3(CC[N+]4(C)CC3CC3)C2O6)cc1 (stereo not shown) | Oprd1 (Mus musculus, UniProt P32300) | – | – | – | baseline: Ki delta over Ki mu | selectivity ratio | 349 |
| COC(=O)C1C(OC(c2ccc(Cl)cc2)c2ccc(Cl)cc2)CC2CCC1N2C (single isomer, unassigned) | rat 5-HT1 receptors | binding, radioligand displacement | – | inactive if below 75% at 10000 nM, added: [3H]5-HT | – | Ki | inactive |
| CN(C)C(=O)C(NC(=O)c1ccccc1-c1ccc(C(F)(F)F)cc1)c1cccc(C(F)(F)F)c1 (stereo not shown) | NKG2-D type II integral membrane protein, with MICA (KLRK1, Homo sapiens, UniProt P26718) | – | – | – | – | Emax | 97% |
| COP(=O)(O)O | Alkaline phosphatase PafA (pafA, Elizabethkingia meningoseptica, UniProt Q9KJX5, K162A) | – | Chryseobacterium meningosepticum | pH 8.0 | baseline: wild type over mutant kcat/KM | relative catalytic efficiency | 4.7e+06 |
| S=C(N/N=C/c1ccc(OCc2ccccc2)cc1)Nc1ccccc1 | MAOA (Homo sapiens, UniProt P21397) | enzyme activity, inhibitor, absorbance | – | 10 µM | – | remaining activity | 60.3% |
| O=C(Cn1cc(C2CCCC2)nn1)N[C@H]1CCOC1=O | lasR | reporter gene, agonist | Escherichia coli, DH5α pJN105L/pSC11 | 100 µM | baseline: OdDHL at same concentration | activation | 0% |
| O=C(O)c1ccccc1-c1c2ccc(=O)c([As]3SCCS3)c-2oc2c([As]3SCCS3)c(O)ccc12 | Ptpn11 (Mus musculus, UniProt P35235) | – | – | 225 nM, catalytic domain, added: pNPP | – | kcat | 36 ± 3.96 min⁻¹ |
| CN(C)C(=O)c1cccc(C(F)(F)F)c1 | APP amyloid-beta 1-40 oligomers | binding, STD NMR | – | highest STD | – | STD NMR signal | 0% |
| O=C(N[C@H]1CCOC1=O)c1ccc(-n2cc(-c3cccc(C(=O)N[C@H]4CCOC4=O)c3)nn2)cc1 | lasR | reporter gene, agonist | Escherichia coli, DH5α pJN105L/pSC11 | 100 µM | baseline: OdDHL at same concentration | activation | 1% |
| CC(C)C[C@@H](N)C(=O)NCC(=O)N[C@H](C)C(=O)N[C@H](CO)C(=O)N[C@H](Cc1c[nH]c2ccccc12)C(=O)N[C@H](Cc1c[nH]cn1)C(=O)N[C@H](CCCNC(=N)N)C(=O)N1CCC[C@@H]1C(=O)N[C@H](CC(=O)O)C(=O)N[C@H](CCCCN)C(=O)N[C@H](CSSC[C@@H](NC(=O)[C@@H](CCCCN)NC(=O)[C@@H](CC(=O)O)NC(=O)[C@H]1CCCN1C(=O)[C@@H](CCCNC(=N)N)NC(=O)[C@@H](Cc1c[nH]cn1)NC(=O)[C@@H](Cc1c[nH]c2ccccc12)NC(=O)[C@@H](CO)NC(=O)[C@@H](C)NC(=O)CNC(=O)[C@H](N)CC(C)C)C(=O)N[C@H](C)C(=O)N[C@H](CC(C)C)C(=O)NCC(=O)N[C@H](Cc1ccc(O)cc1)C(=O)N[C@H](CCC(N)=O)C(=O)N[C@H](CCCCN)C(=O)N[C@H](CCCNC(=N)N)C(=O)N1CCC[C@@H]1C(=O)N[C@H](CC(C)C)C(=O)N1CCC[C@@H]1C(N)=O)C(=O)N[C@H](C)C(=O)N[C@H](CC(C)C)C(=O)NCC(=O)N[C@H](Cc1ccc(O)cc1)C(=O)N[C@H](CCC(N)=O)C(=O)N[C@H](CCCCN)C(=O)N[C@H](CCCNC(=N)N)C(=O)N1CCC[C@@H]1C(=O)N[C@H](CC(C)C)C(=O)N1CCC[C@@H]1C(N)=O | C-X-C chemokine receptor type 4, N-terminus deleted (2-25) (CXCR4, Homo sapiens, UniProt P61073) | – | 293 cells, stably transfected | 300 nM, added: 12G5 antibody 5 µg/mL | baseline: wild type | 12G5 antibody binding increase | 15% |
| CC(C)C[C@H](NC(=O)CNC(=O)[C@H](CCC(=O)O)NC(=O)[C@H](CCCCN)NC(=O)[C@H](CC(C)C)NC(=O)[C@H](C)NC(=O)[C@H](C)NC(=O)CNC(=O)[C@H](C)NC(=O)[C@H](CCCCN)NC(=O)[C@H](CCC(=O)O)NC(=O)[C@H](CC(C)C)NC(=O)[C@H](CCCCN)NC(=O)[C@H](CCCCN)NC(=O)[C@H](CC(C)C)NC(=O)[C@H](CC(C)C)NC(=O)[C@H](CCCCN)NC(=O)[C@H](Cc1c[nH]c2ccccc12)NC(=O)[C@@H](N)CCCCN)C(=O)N[C@@H](CC(C)C)C(=O)N[C@@H](CCCCN)C(=O)N[C@@H](C)C(=O)NCC(=O)N1CCC[C@H]1C(=O)N[C@@H](C)C(=O)N[C@@H](CC(C)C)C(=O)N[C@@H](C)C(=O)N[C@@H](CC(C)C)C(=O)N[C@@H](CC(C)C)C(=O)NCC(=O)N[C@@H](C)C(=O)N[C@@H](C)C(=O)N[C@@H](C)C(=O)N[C@@H](C)C(=O)N[C@@H](CC(C)C)C(=O)N[C@@H](C)C(=O)N[C@@H](CCCCN)C(N)=O | POPC membrane | membrane binding, stopped-flow FRET | – | mole fraction units, room temperature | – | binding free energy | -5.6 kcal/mol |
| CC[C@H](C)[C@@H]1NC(=O)[C@H](Cc2ccc(O)cc2)NC(=O)[C@@H](N)CSSC[C@@H](C(=O)N2CCC[C@H]2C(=O)N2CCC[C@H]2C(=O)NCC(N)=O)NC(=O)[C@H](CC(N)=O)NC(=O)[C@H](CCC(N)=O)NC1=O | Oxytocin receptor (Macaca mulatta, UniProt P56494) | Ca2+ mobilisation, agonist | CHO cells | – | – | Emax | 3390 RFU |
| CC(C)C[C@H](NC(=O)[C@@H](N)Cc1ccccc1)C(=O)O | Amyloid-beta precursor protein, Aβ40 (APP, Homo sapiens, UniProt P05067) | binding, ion mobility MS, measured: Aβ dimer | – | – | – | dimer bound | 69 ± 4.5% |
| O=[N+]([O-])c1ccc(OP(=O)(O)O)cc1 | Alkaline phosphatase PafA (pafA, Elizabethkingia meningoseptica, UniProt Q9KJX5, R164A) | substrate | Chryseobacterium meningosepticum | – | – | Km | 51 µM |
| CSCC[C@H](NC(=O)[C@H](CCCNC(=N)N)NC(=O)[C@H](CO)NC(=O)[C@@H](NC(=O)[C@H](CC(=O)O)NC(=O)[C@H](CC(=O)O)NC(=O)CCCCCNC(=O)c1ccc2c(c1)C(=O)OC21c2ccc(O)cc2Oc2cc(O)ccc21)[C@@H](C)O)C(=O)N[C@@H](CCC(=O)O)C(=O)N[C@@H](CCCCN)C(=O)N[C@H](C(=O)N[C@@H](CC(=O)O)C(=O)O)C(C)C | FKBP5 (Homo sapiens, UniProt Q13451) | binding, fluorescence polarization | – | pH 7.4, full-length protein | baseline: wild-type Hsp90α tracer | affinity decrease | ≥ 3 fold |
| CC[C@H](C)[C@H](NC(=O)[C@H](Cc1c[nH]cn1)NC(=O)[C@H](CCCCNC(=O)[C@@H](NC(=O)[C@H](CCCCN)NC(=O)CSC[C@H](NC(=O)[C@H](Cc1ccccc1)NC(=O)[C@H](CCCCNC(=O)[C@H](CC(C)C)NC(=O)[C@@H]1CCCN1C(=O)[C@H](CCCCN)NC(=O)CCS[C@@H]1O[C@H](CO)[C@H](O)[C@H](O)[C@H]1O)NC(=O)[C@H](CC(C)C)NC(=O)[C@@H]1CCCN1C(=O)[C@H](CCCCN)NC(=O)C[C@@H]1O[C@@H](C)[C@@H](O)[C@@H](O)[C@@H]1O)C(N)=O)[C@@H](C)CC)NC(=O)[C@@H](NC(=O)[C@H](CCCCN)NC(=O)CSC[C@H](NC(=O)[C@H](Cc1ccccc1)NC(=O)[C@H](CCCCNC(=O)[C@H](CC(C)C)NC(=O)[C@@H]1CCCN1C(=O)[C@H](CCCCN)NC(=O)CCS[C@@H]1O[C@H](CO)[C@H](O)[C@H](O)[C@H]1O)NC(=O)[C@H](CC(C)C)NC(=O)[C@@H]1CCCN1C(=O)[C@H](CCCCN)NC(=O)C[C@@H]1O[C@@H](C)[C@@H](O)[C@@H](O)[C@@H]1O)C(N)=O)[C@@H](C)CC)C(N)=O | lecA | binding, isothermal titration calorimetry | – | divided by galactoside copies | baseline: monovalent galactoside KD over ligand KD | relative potency per galactoside | 73 |
| CCN(Cc1ccccc1)C(=O)CCc1nc(CN2CCN(C(=O)Cc3ccc(OC)c(OC)c3)CC2)no1 | Sodium channel protein type 11 subunit alpha (Scn11a, Rattus norvegicus, UniProt O88457) | sodium current, whole-cell patch clamp | rat DRG neurons | 1 µM | – | inactivation V1/2 | -97.6 ± 12.8 mV |
| CC(=O)N[C@@H](CC(C)C)C(=O)N[C@@H](C)C(=O)N[C@@H](C)C(=O)NN(CCC(=O)N(C)C)C(=O)CBr | Genome polyprotein, 3C protease (Human hepatitis A virus genotype IB, UniProt P08617, C1543S) | inhibitor | Hepatitis A virus | – | – | kinact/KI | 870 M⁻¹ s⁻¹ |
| CC(=O)NC(Cc1ccc(Br)c(Cl)c1)C(=O)N[C@@H](C)C(=O)N1CCC[C@H]1C(=O)N1CCC[C@H]1C(=O)N[C@@H](CCC(=O)O)C(=O)N[C@@H](Cc1c[nH]cn1)C(=O)N[C@@H](CO)C(=O)N[C@H](C(=O)N[C@@H](C)C(N)=O)[C@@H](C)OP(=O)(O)O (stereo partly shown) | DAPK1 (Homo sapiens, UniProt P53355) | – | – | 10 µM | – | inhibition | 0.23 ± 0.01% |
| C[C@@]1(O)CC[C@H]2[C@H](CC[C@@H]3[C@@H]2CC[C@]2(C)[C@@H](C(=O)Cn4cccn4)CC[C@@H]32)C1 | Membrane progestin receptor delta (Paqr6, Mus musculus, UniProt Q6TCG5) | pPKA/PKA immunoblot | MDA-MB-231 expressing Paqr6-GFP | 10 nM, 20 min | baseline: control | PKA activation | 99 ± 6.61% |
| O=C(CCCC[C@@H]1SC[C@@H]2NC(=O)N[C@@H]21)NCCCCCCCCN1[C@H]2[C@H](O)[C@@H](O)[C@H](O[C@@H]3OC[C@@H](O)[C@H](O)[C@H]3O)C[C@H]21 (stereo partly shown) | endo-1,4-beta-xylanase (Aspergillus aculeatus, UniProt A0A1L9WG58) | covalent inhibitor | – | pH 5.0, added: 4MU-β-D-xylobioside | – | kinact | 0.000183 s⁻¹ |
